Experimental data gathered from unrelated publications.
A part holds a random share of what one study measured. Positions count from the first letter of the parent shown.

Sample 1 — technique: DHFR PCA, deep sequencing; sample: yeast; with: (+)-ABA 710 µM; relative to: wild-type fitted maximum; reading: higher = stronger binding; quantity: relative binding score
Target: ABI1, truncated, D143A, DHFR fusion (Arabidopsis thaliana)
Setting: methotrexate growth selection, single substitutions
Starting sequence: PYL1, truncated, DHFR fusion (Arabidopsis thaliana); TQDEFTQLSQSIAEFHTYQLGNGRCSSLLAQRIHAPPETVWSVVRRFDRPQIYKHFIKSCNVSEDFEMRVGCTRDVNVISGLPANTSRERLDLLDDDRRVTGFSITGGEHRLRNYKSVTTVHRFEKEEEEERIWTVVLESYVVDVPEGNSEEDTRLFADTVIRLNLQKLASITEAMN
D48G: 78.6%
G107D: 95.9%
W41F: 67.2%
Q51F: 101%
P50R: -2.37%
N177G: 101%
Y53M: 75.6%
R88P: 12.7%
S11P: 114%
D75P: -2.5%
A175R: 102%
Y18D: 87.4%
T173G: 89.7%
A13S: 96.7%

Sample 2 — technique: universal PBM; molecule type: double-stranded DNA, one strand shown; sample: in vitro; tested at: 600 nM; reading: higher = stronger binding; quantity: E-score
Target: Sal-like protein 4, full length isoform A (SALL4, Homo sapiens, UniProt Q9UJQ4, residues 1-1053)
Chain of UniProt Q9UJQ4 (whole entry, looked up): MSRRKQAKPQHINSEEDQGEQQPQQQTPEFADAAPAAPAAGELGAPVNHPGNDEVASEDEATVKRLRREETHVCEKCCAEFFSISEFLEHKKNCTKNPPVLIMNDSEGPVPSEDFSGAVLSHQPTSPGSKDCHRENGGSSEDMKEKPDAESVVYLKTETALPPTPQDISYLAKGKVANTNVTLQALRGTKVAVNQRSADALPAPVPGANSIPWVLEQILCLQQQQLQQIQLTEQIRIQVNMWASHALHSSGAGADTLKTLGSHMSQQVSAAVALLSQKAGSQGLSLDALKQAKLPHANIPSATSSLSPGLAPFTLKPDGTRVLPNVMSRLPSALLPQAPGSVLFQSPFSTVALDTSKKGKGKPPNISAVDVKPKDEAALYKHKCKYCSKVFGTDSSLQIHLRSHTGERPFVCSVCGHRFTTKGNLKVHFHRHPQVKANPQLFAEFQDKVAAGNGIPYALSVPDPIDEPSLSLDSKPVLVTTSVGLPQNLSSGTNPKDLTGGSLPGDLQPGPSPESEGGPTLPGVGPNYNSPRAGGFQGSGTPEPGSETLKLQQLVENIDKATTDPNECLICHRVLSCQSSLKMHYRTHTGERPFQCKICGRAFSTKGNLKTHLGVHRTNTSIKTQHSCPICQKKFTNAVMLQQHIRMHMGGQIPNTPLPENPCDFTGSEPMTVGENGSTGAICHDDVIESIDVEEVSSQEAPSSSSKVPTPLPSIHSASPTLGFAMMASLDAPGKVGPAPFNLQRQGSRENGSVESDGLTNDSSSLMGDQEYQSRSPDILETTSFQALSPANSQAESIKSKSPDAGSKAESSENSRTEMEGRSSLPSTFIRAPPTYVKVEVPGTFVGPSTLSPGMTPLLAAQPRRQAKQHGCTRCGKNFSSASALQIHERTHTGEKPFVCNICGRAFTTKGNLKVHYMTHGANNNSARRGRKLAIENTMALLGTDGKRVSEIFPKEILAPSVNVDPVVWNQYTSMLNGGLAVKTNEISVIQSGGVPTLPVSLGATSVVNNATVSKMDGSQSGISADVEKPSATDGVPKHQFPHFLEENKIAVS
Setting: 8-mer, flanks averaged, mean of replicates
CGGGGAAG: -0.215
ACGGTTAT: 0.11
CTGTGGGC: -0.229
ATAGCAGA: 0.0793
GAATGCAA: 0.194
CAAGCGCG: -0.0838
AGGAGCGC: -0.25
CCCCTTTC: -0.111
GGAAGCAA: -0.0647
AAACGTGT: 0.108
ACGACGGG: -0.231
CTGCCGCC: -0.413

Sample 3 — target: CCND3, cyclin fold, Cln2 fusion (human); technique: yeast growth competition, sequencing; sample: yeast; setting: weak parent motif; relative to: not given; reading: higher = stronger binding; quantity: normalised enrichment score
Starting sequence: PKMYT1 docking peptide (human); SFEPRNLLSLFED; partner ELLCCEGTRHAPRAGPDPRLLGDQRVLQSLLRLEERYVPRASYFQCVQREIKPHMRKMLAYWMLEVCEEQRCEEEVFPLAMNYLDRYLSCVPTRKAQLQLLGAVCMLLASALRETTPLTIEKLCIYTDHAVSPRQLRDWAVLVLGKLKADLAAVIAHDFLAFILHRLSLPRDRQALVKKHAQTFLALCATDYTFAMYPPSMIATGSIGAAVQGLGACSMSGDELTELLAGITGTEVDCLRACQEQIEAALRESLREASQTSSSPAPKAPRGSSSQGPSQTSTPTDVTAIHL
F11T: 0.0812
E12N: 0.0546
P4D: 0.0872
P4S: 0.0847
D13H: -0.025
L7A: 0.138
S9Q: 0.0797
L8E: -0.343
N6F: 0.214
E12A: 0.0948
L7T: 0.0882
F11K: 0.114
S1D: 0.103
S9M: 0.0655
L10M: 0.0677
E3R: 0.02

Sample 4 — technique: RNA Bind-n-Seq; molecule type: RNA; sample: in vitro; tested at: 1 µM; setting: whole 134-nt RNA, ends assumed; with: 150 mM KCl; relative to: input library; reading: higher = stronger binding; quantity: log2 enrichment
Target: Ras GTPase-activating protein-binding protein 1, C-terminal RGG region (G3BP1, Homo sapiens, UniProt Q13283)
Chain of UniProt Q13283 (whole entry, looked up): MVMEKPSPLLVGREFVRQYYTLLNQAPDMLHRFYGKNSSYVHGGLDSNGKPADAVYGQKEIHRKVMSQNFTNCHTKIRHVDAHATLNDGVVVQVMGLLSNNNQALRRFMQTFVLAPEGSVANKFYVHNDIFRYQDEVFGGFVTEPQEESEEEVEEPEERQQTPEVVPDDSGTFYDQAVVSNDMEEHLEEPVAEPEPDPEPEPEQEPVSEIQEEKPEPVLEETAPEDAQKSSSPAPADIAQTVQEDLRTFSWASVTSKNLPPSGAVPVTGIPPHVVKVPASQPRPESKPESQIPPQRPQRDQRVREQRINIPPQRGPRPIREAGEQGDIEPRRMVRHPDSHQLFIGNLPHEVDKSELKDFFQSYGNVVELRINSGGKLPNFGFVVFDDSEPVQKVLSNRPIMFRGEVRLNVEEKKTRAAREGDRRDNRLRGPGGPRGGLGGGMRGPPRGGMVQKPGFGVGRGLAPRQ
Shared flanks, not repeated: GGGAGUUCUACAGUCCGACGAUC … UGGAAUUCUCGGGUGUCAAGG
CACAGACAACACCCACCCACACAGACACAGAGGGAAGGGGUUGGGAUGGGGACAGGGUGCACAGCAGGGCGGGGUAGGACCCCAGCCCCU: -0.276
AGUCCUGUGCUACACAUCGUAUGUACCGAAUCGGGUUUUGGGUUUUGGGUUUUGGGGAAAGUAUUAUGUUACGCCGUUCGGAUCUGCACU: 1.66
UCCUGUGCUACACAUCGUAUGUACCGAAUCGGGAAAGGGAAAAAAAGGGAAAAAAAGGGAAAGUAUUAUGUUACGCCGUUCGGAUCUGCA: -0.656
CACAUACAACACGCACCCACACAGACACAGAGGGAAGGGGUUGGGAUGGGGACAGGGUGCACAGCAGGGCGGGGUAGGACCCCAGCCCCU: -0.212
CCUGUGCUACACAUCGUAUGUACCGAAUCGGGGAAAAAAAGGGGAAAGGGGUUUUUGGGGAAAGUAUUAUGUUACGCCGUUCGGAUCUGC: 1.4
CACAGACAACACGCACCCACACAGACACAGAGGGAAGGGGUUGGGAUGGGGGCAGGGUGCACAGCAGGGCGGGGUAGGACCCCAGCCCCU: 0.611
UGGGAGGUGGAUUUUGUUAAUUUUUUUAGCUCAUUUCCAGGGGUGGGAAUUUUUUUUUAAUAUGUGUCAUGAAUAAAGUUGUUUUUGAAA: 1.75

Some of these lines once more (sample 1):
W41F: 67.2%
D75P: -2.5%
N177G: 101%
Y53M: 75.6%
